Results collected from several papers.
Each numbered part is a random draw from the data of one study; scales do not carry over between parts.

Sample 1 — technique: RNA Bind-n-Seq; form: RNA; matrix: in vitro; concentration: 365 nM; relative to: no-protein control; reading: higher = stronger binding
Target: RNA binding protein fox-1 homolog 2, RRM domain, GST-SBP tag (RBFOX2, Homo sapiens, UniProt O43251-10, residues 100-194)
Notes: natural RNA segment, single round, ends assumed
Shared flanks, not repeated: GGGAGUUCUACAGUCCGACGAUC … UGGAAUUCUCGGGUGCCAA
For `GGGAAAUCAGGUCUUUAUUGAUAAAGUUAGGGAGAAGAUUGAUGCAAUAGGACAAUUUCCAAUUUAAUUUAGAUCCUCUAAUCUUUCUACAUGGACAAGCUGUUUUCUUU`, “RBNS enrichment (R)” read 0.516.
`CUCCAGACCUGGUUGAGGGAGUAUAGAUUGGGUCUAGCUUGCUUCAGUGUACAGAAACCUCCUCUGUCGUGGCUAGCAUUGAAGCUGGGGUGGAGAACCCGAGGUUAGUU`: “RBNS enrichment (R)” 1.16.
For `UGAAAUCCCUGCCAGACGGCUCAGCCUGGUCUGCGGUAAGGCAGGGAGGCUGGAACCAUUUCUGGGCAUUGUGGUCAUUCCCACUGUGUUCCUCCACCUCCUCCCUCCAG`, “RBNS enrichment (R)” read 0.44.
`UGGUAGCUUUUCUGGACUGUGUGCAGCAGUUCAAAGAAGAGGUGGAAAAAGGAGAGACUCGAUUUUGUCUUCCGUACAGGAUGGACGUGGAGAAAGGCAAGAUUGAAGAC`: “RBNS enrichment (R)” 0.502.
For `CACAGGUAGACCUGAAUCUGCCCAGCUUGUUGACAGCUCUUGUGUAUACUGUGUUGAAGCCAGACAGAAAAGUAAUGGGGCCACUUCUGAAACCUCUCAGCUGUUGAUCU`, “RBNS enrichment (R)” read 1.19.
Under “RBNS enrichment (R)”, `UUUUUUUCUGUUUAUCAUGUUGAAUUUCAUUGACUUAAUUAGUCUUUAAAUUUGAAAACAUGUUUUAGGGAGUUUAGUUCUAGAAAUUUCUCUUAGAUUGAAGUGACAGA` is recorded as 0.533.
Under “RBNS enrichment (R)”, `ACUGGAUGGUGGUACAUGGUGGCAGGGACAGGACCACACCCAGUUAAGGCCAGACCAGGCUGAGUGUGACCCCUGAGGUAAACACUCCACUAAGCUGUGUCUUGUUCAUG` is recorded as 0.402.

Sample 2 — technique: protein-binding microarray; form: double-stranded DNA, one strand shown; matrix: in vitro; concentration: not given; reading: higher = stronger binding
Target: Transcriptional repressor CTCF (CTCF, Homo sapiens, UniProt P49711, residues 1-727, full length assumed)
Sequence of UniProt P49711 (whole entry, looked up): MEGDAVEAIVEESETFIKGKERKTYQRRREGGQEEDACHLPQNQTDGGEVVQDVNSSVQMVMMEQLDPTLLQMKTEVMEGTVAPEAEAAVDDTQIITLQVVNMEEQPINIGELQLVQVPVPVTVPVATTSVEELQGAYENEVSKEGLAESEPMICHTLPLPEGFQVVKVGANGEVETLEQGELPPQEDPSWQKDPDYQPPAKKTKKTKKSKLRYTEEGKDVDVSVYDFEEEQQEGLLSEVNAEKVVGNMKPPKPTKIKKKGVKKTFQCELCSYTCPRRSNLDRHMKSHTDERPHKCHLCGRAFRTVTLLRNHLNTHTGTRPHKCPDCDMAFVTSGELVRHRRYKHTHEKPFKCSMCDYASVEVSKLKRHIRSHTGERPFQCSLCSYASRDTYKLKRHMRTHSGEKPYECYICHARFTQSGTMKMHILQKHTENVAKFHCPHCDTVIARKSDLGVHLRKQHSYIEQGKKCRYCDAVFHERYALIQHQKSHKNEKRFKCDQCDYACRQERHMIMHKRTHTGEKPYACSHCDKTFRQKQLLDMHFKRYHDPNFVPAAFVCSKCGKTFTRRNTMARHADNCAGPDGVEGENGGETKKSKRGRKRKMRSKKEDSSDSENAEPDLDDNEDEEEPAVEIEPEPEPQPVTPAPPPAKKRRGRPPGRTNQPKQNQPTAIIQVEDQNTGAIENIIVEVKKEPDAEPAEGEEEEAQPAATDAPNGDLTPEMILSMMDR
Notes: k-mer, scored over probes, only values ≥0.25
The E-score of `TAAAAAAA` is reported as 0.28.
For `GTACATTA`, the E-score was 0.277.
With `GTGTATAA` the E-score was 0.315.
For `ATAAAAAC`, the E-score was 0.273.
`AAATAAAA` has an E-score of 0.33.
With `AATACAAC` the E-score was 0.301.
The E-score of `CATTACAA` is reported as 0.304.
The E-score of `GCGCCACA` is reported as 0.38.
The E-score of `AATTTACG` is reported as 0.296.
`ATTTAGTG` gave an E-score of 0.254.

Sample 3 — technique: universal PBM; form: double-stranded DNA, one strand shown; matrix: in vitro; concentration: not given; reading: higher = stronger binding
Target: Sal-like protein 4, full length isoform B (SALL4, Homo sapiens, UniProt Q9UJQ4-2, residues 1-616)
Notes: 8-mer, flanks averaged, mean of replicates
Construct (chain): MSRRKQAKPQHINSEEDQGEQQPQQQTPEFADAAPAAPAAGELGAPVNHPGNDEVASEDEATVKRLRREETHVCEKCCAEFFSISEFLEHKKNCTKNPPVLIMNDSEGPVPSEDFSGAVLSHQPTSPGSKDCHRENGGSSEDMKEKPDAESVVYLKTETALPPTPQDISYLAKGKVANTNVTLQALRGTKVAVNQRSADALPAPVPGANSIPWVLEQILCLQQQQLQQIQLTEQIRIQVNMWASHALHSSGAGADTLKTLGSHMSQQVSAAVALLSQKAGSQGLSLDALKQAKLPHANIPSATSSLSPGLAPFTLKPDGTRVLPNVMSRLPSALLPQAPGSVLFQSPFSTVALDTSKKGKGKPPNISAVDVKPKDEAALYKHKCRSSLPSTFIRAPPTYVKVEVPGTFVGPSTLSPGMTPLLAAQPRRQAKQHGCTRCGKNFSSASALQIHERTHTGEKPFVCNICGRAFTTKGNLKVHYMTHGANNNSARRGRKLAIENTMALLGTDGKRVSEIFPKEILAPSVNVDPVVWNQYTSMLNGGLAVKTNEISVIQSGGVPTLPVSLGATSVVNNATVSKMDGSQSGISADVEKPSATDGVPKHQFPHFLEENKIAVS
`CAGTGATC` has an E-score of -0.12.
`TAAGGGAA` has an E-score of 0.187.
The E-score of `ACATTGTA` is reported as 0.139.
`TAAGAAGA` has an E-score of 0.136.
`AGTAGTAC` has an E-score of 0.106.
The E-score of `AATCGGCC` is reported as -0.29.
`GGCGGGTA` gave an E-score of -0.178.
`CGACGTAG` has an E-score of -0.0949.

Further values, each from its own experiment
For `PhoQ, residues 284 288 289 292 302 303 AQGLTV`, the fold induction was 0.958 (PhoP, residues 12 14 15 18 19 SMASL (Escherichia coli, UniProt P23836); Sort-seq, refers to: YFP reporter; E. coli; PhoQ-PhoP variant library, added: 10 µM Mg2+; relative to: high Mg2+ state, higher = stronger signaling).
